Published values pooled from the literature.
A part holds a random share of what one study measured. Positions count from the first letter of the parent shown.

Block 1
Target: Histone acetyltransferase KAT6A, winged helix 1, GST fusion (KAT6A, Homo sapiens, UniProt Q92794, residues 1-85)
Technique: protein binding microarray
Form: double-stranded DNA, one strand shown
Medium: in vitro
Tested at: not given
Notes: 8-mer, flanks averaged, mean of 2 arrays, mostly near background
Reference: not given
Reading: higher = stronger binding
Target sequence (chain): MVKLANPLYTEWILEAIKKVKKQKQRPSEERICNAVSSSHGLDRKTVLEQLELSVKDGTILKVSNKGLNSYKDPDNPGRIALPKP
Oligonucleotide	E-score
CGACAGCG	0.33
GCCTGTCA	-0.122
ACCTAGCA	-0.189
AGACCAAA	-0.119
GTAGGCTA	-0.0398
CAATGATC	0.0494
AATGTTGA	-0.0773
GATGCTGA	-0.15
CAATAGGA	-0.12
ATACGCCG	0.4
CGTTTAAG	0.11
ATTATATG	-0.152
AACCTGAC	-0.112

Block 2
Target: Ras GTPase-activating protein-binding protein 1, RRM domain (G3BP1, Homo sapiens, UniProt Q13283)
Chain of UniProt Q13283 (whole entry, looked up): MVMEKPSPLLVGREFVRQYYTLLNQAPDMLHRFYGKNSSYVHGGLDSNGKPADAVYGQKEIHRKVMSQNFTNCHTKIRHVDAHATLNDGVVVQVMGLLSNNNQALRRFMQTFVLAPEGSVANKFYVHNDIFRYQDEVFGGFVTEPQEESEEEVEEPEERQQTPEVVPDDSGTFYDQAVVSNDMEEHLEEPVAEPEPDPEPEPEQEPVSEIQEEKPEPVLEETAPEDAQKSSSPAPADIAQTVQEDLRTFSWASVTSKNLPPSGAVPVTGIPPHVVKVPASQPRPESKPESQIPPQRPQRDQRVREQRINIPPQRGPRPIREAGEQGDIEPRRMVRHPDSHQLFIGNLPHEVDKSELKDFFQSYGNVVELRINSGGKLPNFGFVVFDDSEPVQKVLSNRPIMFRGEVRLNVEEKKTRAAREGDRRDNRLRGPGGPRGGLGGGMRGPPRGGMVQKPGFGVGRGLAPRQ
Technique: RNA Bind-n-Seq
Form: RNA
Medium: in vitro
Tested at: 1 µM
Notes: whole 134-nt RNA, ends assumed
Added: 150 mM KCl
Reference: input library
Reading: higher = stronger binding
Constant ends, left off below: GGGAGUUCUACAGUCCGACGAUC … UGGAAUUCUCGGGUGUCAAGG
Oligonucleotide	log2 enrichment
CACAGACAACACGCACCCACACAGACACAGAGGGAAGGGGUUGGGAUGGGGACAGGGUGCACAACAGGGCGGGGUAGGACCCCAGCCCCU	-0.0215
UGGGAGGUGGAUUUUGUUUUUUUUUUUAGCUCAUUUCCAGGGGUGGGAAUUUUUUUUUAAUAUGUGUCAUGAAUAAAGUUGUUUUUGAAA	1.09
UAACUUUAGAGGAGGAUCUGAUGGAUAUGGCAGUGGACGUGGAUUUGGGGAUGGCUAUAAGGGGUAUGGAGGAGGACCUGGAGGUGGCAA	-0.379
AGUUACGGUAGCAGUUCUCAGAGCAGCAGCUAUGGGCAGCCCCAGAGUGGGAGCUACAGCCAGCAGCCUAGCUAUGGUGGACAGCAGCAA	-0.394
GCAGGAAGUAAAAACAAAUGGAAAUGCUUCGGAUAGUGGCAGGGGUGGGGGUUGCUAAGGAAAGGGUGGGAUGGGAGUAGGUAAAGAGUU	1.13
UGGCCCUGGUGGCAUGCGGGGAGGAAGAGGUGGCCUCAUGGAUCGUUGUGGUCCCGGUGGAAUGUUCAGAGGUGGCCGUGGUGGAGACAG	0.7
CACAGACAACACGCACCCACACAGACACAGAGGGAAGGGGUUGGGAUGGGGAGAGGGUGCACAGCAGGGCGGGGUAGGACCCCAGCCCCU	0.252
UAACUUUAGAGGAGGAUCUGAUGGAUAUGGCAGUGGACGUGGAUUUGGGGAUGGCUAUAAUGGAUAUGGAGGAGGACCUGGAGGUGGCAA	-0.348
CCUGUGCUACACAUCGUAUGUACCGAAUCGGGCCCCCCCGGGGCCCCCCCGGCCCCCCCGGAAAGUAUUAUGUUACGCCGUUCGGAUCUG	-0.532

Block 3
Target: RNA binding protein fox-1 homolog 2, RRM domain, GST-SBP tag (RBFOX2, Homo sapiens, UniProt O43251-10, residues 100-194)
Technique: RNA Bind-n-Seq
Form: RNA
Medium: in vitro
Tested at: 365 nM
Notes: natural RNA segment, single round, ends assumed
Reference: no-protein control
Reading: higher = stronger binding
Constant ends, left off below: GGGAGUUCUACAGUCCGACGAUC … UGGAAUUCUCGGGUGCCAA
Residues (chain): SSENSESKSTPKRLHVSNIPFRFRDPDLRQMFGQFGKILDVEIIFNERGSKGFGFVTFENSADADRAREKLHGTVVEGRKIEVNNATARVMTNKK
Oligonucleotide	RBNS enrichment (R)
GAGUUGAAUUUAUAAAUGUCAUUUGCAACCAAAUGAAGUAUUUAUUUUUAAAAAGAGAGUGAAGGAACCAACACUGAUUUGUACAUAAUAAAAAUGUGUGUAUUAUAUAU	0.374
GGGUCCCUGGAAAGGGGGAGAGUUGCCCUUUACAGAAUCACUCGAGCCCUUUCCAGCACUGUUGGUCUGAUGAACAAGGUUGUUUUACCUUAUUUUCUCUUGGAACAUAU	0.239
CAUUGUUAAUAUCACGGGCGUAACACUUUGAACGAUAUAGAGAUGCACAAACAGUUGAACUUAGAAGUAGCAGUAUUGGCUUUAUGUAAUAAAGGAAGCAUUUUUGACUU	0.563
AACAAAACACCUGAUUAAGCUCUUGAGUAUGGCAUAGGAAUUUUUUAGAAGAAUGCAUUCAAGGAUUCUUUUCCUUUCCUUCAGUGUCAUUAAUGUUAAAAGAGCAGCCA	0.575
AGCAUCUCAGUCAAGCAUCUAAAACAGGGGGCAGUCUGUGUAUACAAGAGCCCACCUCCUGCUGUGUGAUGUCAUCAGGACACCCCCACCCUCACCCCACCACCAGGGUC	0.306
AAACAUCUGAAGUAUGGGACGCCCUGGCCGUUCCAUCCAGUACUAAAUGCUUACCGUGUGACCCUUGGGCUUUCAGCGUGCACUCAGUUCCGUAGGAUUCCAAAGCAGAC	0.45
CUGUUCUAGUGGUUGUAGGGUAAAGACGAACUGGUGAAGCAGUCGUAGCGCCGACCGAAGGUGAUUCCAGUUGUAUAUGUCACGCAGCAUUCGAAGGGACUGUGCACGCU	3
CUGAUGAUUUUAUAAGAGGUUUCCCCUUUUGCUUAGUUCUCAUUCUCUCUUGCCUGCCGCCAUGUAAGACGUGCCUUUCUGUCAUGCUUGUGAGGCCUCCCCAGCCACGU	0.712
CUGACCUGGGCCCACAGAGCCUGGCUUUGGUCCCCAGCAUUGCAGUAUGGUGUGGUGUUUGUAGGCUGUGGGGUCUGGCUGUGUGGCCAAGGUGAAUAGCACAGGUUAGG	0.595
AUGGCAUCUUUUCUGCGCGGUGGGGCUCCCGGAGAACUGGGCAUGCGCAUUGUGCCGUGGGGCUUAGGAUGAGUUGGACACGCGCACUGACAAUGCCUAGGACUGCCUUA	2.32
GGAAAGGAGGUGGCUAGUGGUAUCAGUUCUCUGAUCCACUUCCAUUUAAGCUCCCCAGGAAAUCCCAUGACAAACUGGCCUCUGGCUGGCGCGCUGAUUAGACUUCAGUU	0.183
AAUGCCCCAAACUUUCUCAUAAGCACCUAAAACCCAAAGGUGGCAGCUUGUGAAGAUUGGGGACACUCAUAUUGCCCUAAUUAAAAACUGUGAUUUUUAUCACAAGGGAG	0.262

Block 4
Target: CCND3, cyclin fold, Cln2 fusion (human)
Technique: yeast growth competition, sequencing
Medium: yeast
Notes: weak parent motif
Reference: not given
Reading: higher = stronger binding
Parent: SLBP docking peptide (human); ARYKRKLLINDFG; partner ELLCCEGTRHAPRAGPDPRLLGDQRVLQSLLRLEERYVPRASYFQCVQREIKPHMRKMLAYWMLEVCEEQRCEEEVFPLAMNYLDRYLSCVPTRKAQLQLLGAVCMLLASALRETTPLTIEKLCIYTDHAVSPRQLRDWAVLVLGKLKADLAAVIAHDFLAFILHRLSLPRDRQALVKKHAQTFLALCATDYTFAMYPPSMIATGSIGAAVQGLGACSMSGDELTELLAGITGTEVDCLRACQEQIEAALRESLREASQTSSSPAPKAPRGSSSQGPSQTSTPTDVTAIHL
Change	normalised enrichment score
ARCKRKLLINDFG [Y3C]	0.136
ARYKRKLGINDFG [L8G]	0.087
ARYKRKLLIHDFG [N10H]	0.0367
ARYKRLLLINDFG [K6L]	0.238
TRYKRKLLINDFG [A1T]	0.214
ARYKRKLLINDFR [G13R]	0.112
ARYKRKLLINDFL [G13L]	0.0432
KRYKRKLLINDFG [A1K]	0.121
ARYKNKLLINDFG [R5N]	0.14
ARYKRKLIINDFG [L8I]	0.0975
ARIKRKLLINDFG [Y3I]	0.174
SRYKRKLLINDFG [A1S]	0.195
ANYKRKLLINDFG [R2N]	0.216

Block 5
Target: ABI1, truncated, D143A, DHFR fusion (Arabidopsis thaliana)
Technique: DHFR PCA, deep sequencing
Medium: yeast
Notes: methotrexate growth selection, single substitutions
Added: (+)-ABA 4.8 µM
Reference: wild-type fitted maximum
Reading: higher = stronger binding
Parent: PYL1, truncated, DHFR fusion (Arabidopsis thaliana); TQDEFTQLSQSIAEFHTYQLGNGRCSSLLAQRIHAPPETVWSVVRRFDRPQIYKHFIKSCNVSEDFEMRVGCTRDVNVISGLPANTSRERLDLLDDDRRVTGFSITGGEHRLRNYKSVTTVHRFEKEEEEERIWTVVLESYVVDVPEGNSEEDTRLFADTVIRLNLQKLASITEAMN
Change	relative binding score [%]
S42D	67.2
G23P	0.611
L29D	-3.31
H110G	6.35
T135K	-9.1
H34Q	72.9
F157D	6.11
A30G	56.2
S11V	80.9
N22L	67.6
E125T	78.3
T101S	37.7
T6D	77.7
V44P	-8.42

Block 6
Target: Sal-like protein 4, full length isoform A (SALL4, Homo sapiens, UniProt Q9UJQ4, residues 1-1053)
Chain of UniProt Q9UJQ4 (whole entry, looked up): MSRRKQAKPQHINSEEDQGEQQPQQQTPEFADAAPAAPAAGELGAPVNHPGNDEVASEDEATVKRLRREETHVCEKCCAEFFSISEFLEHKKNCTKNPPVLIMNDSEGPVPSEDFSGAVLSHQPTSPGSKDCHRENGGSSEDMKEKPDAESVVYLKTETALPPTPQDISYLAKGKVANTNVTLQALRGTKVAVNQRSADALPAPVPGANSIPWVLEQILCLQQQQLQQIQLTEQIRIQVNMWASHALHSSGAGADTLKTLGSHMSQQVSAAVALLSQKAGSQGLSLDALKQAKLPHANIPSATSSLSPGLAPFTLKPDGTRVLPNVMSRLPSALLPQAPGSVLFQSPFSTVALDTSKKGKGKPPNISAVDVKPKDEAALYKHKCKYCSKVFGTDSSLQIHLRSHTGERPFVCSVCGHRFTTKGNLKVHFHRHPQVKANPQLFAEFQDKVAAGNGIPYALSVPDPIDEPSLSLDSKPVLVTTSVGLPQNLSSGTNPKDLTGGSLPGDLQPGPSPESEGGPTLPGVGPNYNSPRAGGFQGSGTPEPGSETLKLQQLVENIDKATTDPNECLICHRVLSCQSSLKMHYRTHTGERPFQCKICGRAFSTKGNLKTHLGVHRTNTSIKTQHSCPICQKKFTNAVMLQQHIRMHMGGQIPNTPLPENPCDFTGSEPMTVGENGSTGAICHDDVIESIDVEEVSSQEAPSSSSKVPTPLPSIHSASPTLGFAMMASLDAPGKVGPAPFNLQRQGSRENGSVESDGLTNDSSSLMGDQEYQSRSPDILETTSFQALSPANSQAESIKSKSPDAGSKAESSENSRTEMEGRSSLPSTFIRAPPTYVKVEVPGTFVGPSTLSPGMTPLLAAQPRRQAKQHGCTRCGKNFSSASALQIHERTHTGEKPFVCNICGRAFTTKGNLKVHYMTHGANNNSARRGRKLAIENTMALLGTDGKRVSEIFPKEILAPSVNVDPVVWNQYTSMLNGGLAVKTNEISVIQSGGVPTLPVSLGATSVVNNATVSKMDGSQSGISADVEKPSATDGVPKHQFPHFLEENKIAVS
Technique: universal PBM
Form: double-stranded DNA, one strand shown
Medium: in vitro
Tested at: 600 nM
Notes: 8-mer, flanks averaged, mean of replicates
Reading: higher = stronger binding
Oligonucleotide	E-score
CGCTTGAG	-0.113
ACTGACTC	-0.128
GAGGGACA	-0.209
CAACCAAG	-0.00291
ATAGACAC	0.0301
CCCTACAC	-0.0111
CTCCTAAA	-0.0337
AAAGCCAG	-0.155
GCGCACGC	-0.317
ACATCGGT	-0.0835
TCGAGGAA	0.0233
CGGGGCGC	-0.433
CAAGAGTG	0.0374
CATGGGAA	-0.0177
AGCTCAAA	0.126
TACGGCGA	-0.138
CATTAGCC	-0.0393
ACAGTTAC	0.21
TCAGTACA	0.181

Block 7
Target: Eukaryotic initiation factor 4A-I (EIF4A1, Homo sapiens, UniProt P60842, residues 1-406, full length assumed)
Chain of UniProt P60842 (whole entry, looked up): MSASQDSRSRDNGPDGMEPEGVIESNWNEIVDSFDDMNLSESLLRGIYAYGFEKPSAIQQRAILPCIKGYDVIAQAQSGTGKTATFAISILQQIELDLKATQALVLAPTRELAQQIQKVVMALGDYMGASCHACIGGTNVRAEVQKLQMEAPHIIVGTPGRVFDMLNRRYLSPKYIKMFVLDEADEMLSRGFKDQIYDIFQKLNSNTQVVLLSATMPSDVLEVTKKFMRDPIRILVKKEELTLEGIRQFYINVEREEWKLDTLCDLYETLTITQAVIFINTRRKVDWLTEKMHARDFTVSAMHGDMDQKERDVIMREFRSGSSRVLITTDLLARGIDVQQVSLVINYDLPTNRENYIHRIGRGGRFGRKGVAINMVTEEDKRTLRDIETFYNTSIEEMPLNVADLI
Technique: RNA Bind-n-Seq
Form: RNA
Medium: in vitro
Tested at: 90 pmol
Notes: 4-mer, random 30-nt RNA, single round
Added: 3 µM DMDA-PatA, 2 mM ADP, 2 mM phosphate
Reference: input library
Reading: higher = stronger binding
Oligonucleotide	4-mer enrichment
UCGU	0.667 fold
AGUC	0.701 fold
AGAU	0.909 fold
AUCA	0.771 fold
UCCG	0.604 fold
UCAU	0.715 fold
CCAG	0.703 fold
AAAG	1.32 fold
ACGG	0.779 fold
CAAC	0.734 fold
GCCU	0.545 fold

Excerpt of the above (block 3):
Oligonucleotide	RBNS enrichment (R)
GAGUUGAAUUUAUAAAUGUCAUUUGCAACCAAAUGAAGUAUUUAUUUUUAAAAAGAGAGUGAAGGAACCAACACUGAUUUGUACAUAAUAAAAAUGUGUGUAUUAUAUAU	0.374
GGGUCCCUGGAAAGGGGGAGAGUUGCCCUUUACAGAAUCACUCGAGCCCUUUCCAGCACUGUUGGUCUGAUGAACAAGGUUGUUUUACCUUAUUUUCUCUUGGAACAUAU	0.239
CAUUGUUAAUAUCACGGGCGUAACACUUUGAACGAUAUAGAGAUGCACAAACAGUUGAACUUAGAAGUAGCAGUAUUGGCUUUAUGUAAUAAAGGAAGCAUUUUUGACUU	0.563
AACAAAACACCUGAUUAAGCUCUUGAGUAUGGCAUAGGAAUUUUUUAGAAGAAUGCAUUCAAGGAUUCUUUUCCUUUCCUUCAGUGUCAUUAAUGUUAAAAGAGCAGCCA	0.575
AGCAUCUCAGUCAAGCAUCUAAAACAGGGGGCAGUCUGUGUAUACAAGAGCCCACCUCCUGCUGUGUGAUGUCAUCAGGACACCCCCACCCUCACCCCACCACCAGGGUC	0.306
AAACAUCUGAAGUAUGGGACGCCCUGGCCGUUCCAUCCAGUACUAAAUGCUUACCGUGUGACCCUUGGGCUUUCAGCGUGCACUCAGUUCCGUAGGAUUCCAAAGCAGAC	0.45
CUGUUCUAGUGGUUGUAGGGUAAAGACGAACUGGUGAAGCAGUCGUAGCGCCGACCGAAGGUGAUUCCAGUUGUAUAUGUCACGCAGCAUUCGAAGGGACUGUGCACGCU	3
CUGAUGAUUUUAUAAGAGGUUUCCCCUUUUGCUUAGUUCUCAUUCUCUCUUGCCUGCCGCCAUGUAAGACGUGCCUUUCUGUCAUGCUUGUGAGGCCUCCCCAGCCACGU	0.712
CUGACCUGGGCCCACAGAGCCUGGCUUUGGUCCCCAGCAUUGCAGUAUGGUGUGGUGUUUGUAGGCUGUGGGGUCUGGCUGUGUGGCCAAGGUGAAUAGCACAGGUUAGG	0.595
AUGGCAUCUUUUCUGCGCGGUGGGGCUCCCGGAGAACUGGGCAUGCGCAUUGUGCCGUGGGGCUUAGGAUGAGUUGGACACGCGCACUGACAAUGCCUAGGACUGCCUUA	2.32
GGAAAGGAGGUGGCUAGUGGUAUCAGUUCUCUGAUCCACUUCCAUUUAAGCUCCCCAGGAAAUCCCAUGACAAACUGGCCUCUGGCUGGCGCGCUGAUUAGACUUCAGUU	0.183
AAUGCCCCAAACUUUCUCAUAAGCACCUAAAACCCAAAGGUGGCAGCUUGUGAAGAUUGGGGACACUCAUAUUGCCCUAAUUAAAAACUGUGAUUUUUAUCACAAGGGAG	0.262
